Published values collected from several papers.
Protocols differ between the studies behind these lines. “And” joins repeats or separate records; there may be more than shown. In brackets after ≈: the same amount, converted by molar mass.

| SMILES | organism | test | system | setting | how to read | quantity | value |
| --- | --- | --- | --- | --- | --- | --- | --- |
| C=C(C)c1cccc(C(C)(C)NC(=O)Nc2ccc(Cl)c(N)c2)c1 | Staphylococcus aureus |  | Smith, RPMI medium | with: no guanosine |  | MIC | 1.7 µM |
| CN1CC[C@H](c2c(O)cc(O)c3c(=O)cc(-c4ccc(O)cc4)oc23)[C@H](O)C1 | HIV-1 | viral replication | HeLa-CD4-LTR/β-gal, LAI |  |  | EC50 | > 3000 nM |
| N#Cc1ccc(S(=O)(=O)NCc2cn(CB(O)O)nn2)cc1 | Klebsiella pneumoniae |  | blaKPC-2 | 10 µg/mL, with: cefepime |  | MIC of cefepime | 4 µg/mL |
| C/C(=C\C=C\[C@@H](C)[C@H]1CC[C@@]2(C)[C@@H]3CC[C@H]4C(C)(C)[C@@H](O[C@@H]5O[C@H](CO)[C@@H](O)[C@H](O)[C@H]5O[C@@H]5O[C@H](CO)[C@@H](O)[C@H](O)[C@H]5O[C@@H]5O[C@@H](C)[C@H](O)[C@@H](O)[C@H]5O)CC[C@@]45C[C@@]35CC[C@]12C)C(=O)N[C@@H]1C(=O)O[C@H](C)[C@@H]1C | Trypanosoma brucei brucei | Alamar Blue | trypomastigote |  |  | IC50 | 8800 nM |
| O=S(=O)(Nc1ccc2c(c1)B(O)OC2)c1ccccc1 | Staphylococcus aureus | broth microdilution | MRSA ATCC BAA-1762 |  |  | MIC | 6.25 µg/mL |
| CN(C)c1cc(CN2CCOCC2)nc2nc(NCc3ccc(C(C)(C)C)cc3)nn12 | Saccharomyces cerevisiae |  | wild type | 123 µg/mL, without pantothenic acid |  | growth inhibition | ~70% |
| COc1ccc2c(=O)c3ccc(Oc4ccc(OC(F)(F)F)cc4)cc3[nH]c2c1 | Toxoplasma gondii | parasite growth, beta-galactosidase reporter | HFF, RH | 3 days |  | EC50 | 0.379 nM |
| Nc1nc(N)c2c(Cl)c(CNc3ccc(C(=O)O)cc3)ccc2n1 | Mycobacterium tuberculosis | intracellular growth | THP-1 |  |  | MIC90 | 0.05 µM (≈ 0.0172 µg/mL) |
| NCc1ccc(-c2ncc(OCC3CCNCC3)nc2-c2ccc(-c3ccoc3)cc2)cc1 | Zika virus |  | U87, FLR | 300 nM, 48 h |  | infectious virus reduction | 68% |
| CC(=NO)c1cccc(C(C)(C)NC(=O)Nc2ccc(Cl)c(-c3nc(C(F)(F)F)cs3)c2)c1 | Staphylococcus aureus |  | Smith, RPMI medium | with: 1 mM guanosine |  | MIC | > 64 µM |
| CC(C)(O)Cn1nc(-c2ccc3nc(OC4CC4)ccc3c2)c2c(N)ncnc21 | Cryptosporidium parvum | parasite growth | HCT-8 |  |  | EC50 | 464 nM |
| CN1CC[C@H](c2c(O)cc(O)c3c(=O)cc(-c4cnccc4Cl)oc23)[C@H](O)C1 | HIV-1 | viral replication | HeLa-CD4-LTR/β-gal, LAI |  |  | EC50 | > 1000 nM |
| CO[C@H]1[C@H](O[C@H]([C@H]2O[C@@H](n3ccc(=O)[nH]c3=O)[C@H](O)[C@@H]2O)[C@H](NCCCNC(=O)[C@@H](NC(=O)[C@@H](NC(=O)N[C@H](C(=O)O)C(C)C)[C@@H]2CCNC(=N)N2)[C@@H](OC(=O)CCCCCCCCCCCCNC(=N)N)C(C)C)C(N)=O)O[C@H](CN)[C@H]1O | Cryptococcus gattii | alamar blue | C17 |  |  | MIC50 | > 35 µg/mL |
| CC(C)CN(C[C@@H](O)[C@H](Cc1ccccc1)NC(=O)O[C@H]1CO[C@@H]2OCC(F)(F)[C@@H]21)S(=O)(=O)c1ccc(N)cc1 | HIV-1 LAI | viral replication, MTT | MT2 | concentration not given |  | antiviral activity | inactive |
| CN1CC[C@H](c2c(O)cc(O)c3c(=O)cc(-c4ccccn4)oc23)[C@H](O)C1 | HIV-1 | viral replication | HeLa-CD4-LTR/β-gal, LAI |  |  | EC50 | > 1000 nM |
| CC(C)(NC(=O)Nc1ccc(Cl)cc1)c1cccc(C(=N)NO)c1 | Staphylococcus aureus |  | Smith, RPMI |  | reference: with over without guanosine | MIC ratio | 7 |
| O=c1c2ccc(Oc3ccc(OC(F)(F)F)cc3)cc2[nH]c2cc(F)cc(F)c12 | Toxoplasma gondii | parasite growth, beta-galactosidase reporter | HFF, RH |  |  | EC50 | 0.053 nM |
| COc1cc(CC#Cc2c(C)nc(N)nc2N)cc(OC)c1OC | Candida glabrata | Alamar Blue |  |  |  | MIC | 20 µg/mL |
| CC(C)(NC(=O)Nc1ccc(Cl)c(-c2nc(C(F)(F)F)cs2)c1)c1cccc(C(N)=NO)c1 | Staphylococcus aureus |  | Smith, RPMI medium | with: no guanosine |  | MIC | 0.8 µM and ~1 µM |
| C/C(=C\C=C\[C@@H](C)[C@H]1CC[C@@]2(C)[C@@H]3CC[C@H]4C(C)(C)[C@@H](O[C@@H]5O[C@H](CO)[C@@H](O[C@@H]6O[C@H](CO)[C@@H](O)[C@H](O)[C@H]6O)[C@H](O)[C@H]5O[C@@H]5O[C@H](CO)[C@@H](O)[C@H](O)[C@H]5O[C@@H]5O[C@@H](C)[C@H](O)[C@@H](O)[C@H]5O)CC[C@@]45C[C@@]35CC[C@]12C)C(=O)N[C@@H]1C(=O)O[C@H](C)[C@@H]1C (single isomer, unassigned) | Trypanosoma brucei brucei | Alamar Blue | trypomastigote |  |  | IC50 | 2570 nM |
| CN1CC[C@H](c2c(O)cc(O)c3c(=O)cc(-c4cccc(Cl)c4)oc23)[C@H](O)C1 | HIV-1 | viral replication | HeLa-CD4-LTR/β-gal, LAI |  |  | EC50 | 30.8 nM |
| CO[C@H]1[C@H](O[C@H]([C@H]2O[C@@H](n3ccc(=O)[nH]c3=O)[C@H](O)[C@@H]2O)[C@H](NCCCNC(=O)[C@@H](NC(=O)[C@@H](NC(=O)N[C@H](C(=O)O)C(C)C)[C@@H]2CCNC(=N)N2)[C@@H](OC(=O)CCCCCCCCCCCCN(O)C(=N)N)C(C)C)C(N)=O)O[C@H](CN)[C@H]1O | Aspergillus fumigatus | alamar blue |  |  |  | MIC50 | > 35 µg/mL |

A few entries again:
| SMILES | organism | test | system | setting | how to read | quantity | value |
| --- | --- | --- | --- | --- | --- | --- | --- |
| N#Cc1ccc(S(=O)(=O)NCc2cn(CB(O)O)nn2)cc1 | Klebsiella pneumoniae |  | blaKPC-2 | 10 µg/mL, with: cefepime |  | MIC of cefepime | 4 µg/mL |
